Measured values from different studies.
Compare with care: the assays were run in different laboratories.
Organism: Bacillus subtilis

`C#CCOc1ccc(CN[C@@]2(C)C[C@H](O[C@H]3[C@H](Oc4c5cc6cc4Oc4ccc(cc4Cl)[C@@H](O)[C@@H](NC(=O)[C@@H](CC(C)C)NC)C(=O)N[C@@H](CC(N)=O)C(=O)N[C@H]6C(=O)N[C@H]4C(=O)N[C@H](C(=O)N[C@H](C(=O)N[C@@H](CCCNC(=N)N)C(N)=O)c6cc(O)cc(O)c6-c6cc4ccc6O)[C@H](O)c4ccc(c(Cl)c4)O5)O[C@H](CO)[C@@H](O)[C@@H]3O)O[C@@H](C)[C@H]2O)cc1OC` gave an MIC of 0.009 µM (broth microdilution; 168, cation-adjusted Mueller-Hinton broth).
`CC[C@H](C)[C@H](NC(=O)[C@H](Cc1c[nH]c2ccccc12)NC(=O)[C@H](Cc1ccc(O)cc1)NC(=O)[C@H](CCCCN)NC(=O)[C@H](CC(C)C)NC(=O)[C@@H](N)CO)C(=O)N[C@@H](CCCNC(=N)N)C(=O)N[C@@H](Cc1ccc(O)cc1)C(=O)N[C@@H](CCCCN)C(=O)N[C@@H](CCCNC(=N)N)C(=O)N[C@@H](CCC(N)=O)C(=O)NCC(=O)N[C@@H](C)C(=O)N[C@@H](C)C(=O)N[C@@H](CCCNC(=N)N)C(=O)N[C@@H](Cc1ccccc1)C(N)=O` has an MIC of 6.3 µM (broth dilution; KCTC 3068).
`CC[C@H](C)[C@@H]1NC(=O)[C@@H]2CCCN2C(=O)[C@H](C)NC(=O)[C@H](CC(C)C)NC(=O)[C@@H]2CCCN2C(=O)[C@H](C)NC(=O)[C@@H]2CSSC[C@H](NC(=O)[C@H](C)NC(=O)[C@H](C)NC(=O)[C@H](Cc3ccc(O)cc3)NC(=O)[C@@H]3CCCN3C(=O)CNC(=O)[C@H](Cc3c[nH]c4ccccc34)NC1=O)C(=O)N[C@@H](CC(C)C)C(=O)N[C@@H](CO)C(=O)N[C@@H](C)C(=O)N[C@H]1CSSC[C@H](NC(=O)[C@H](C(C)C)NC(=O)[C@@H]3CCCN3C(=O)CNC(=O)CNC(=O)CNC(=O)[C@H](C)NC(=O)[C@H](C)NC(=O)[C@H](CC(C)C)NC1=O)C(=O)N[C@@H](CC(C)C)C(=O)N[C@@H](C)C(=O)N[C@@H](C(C)C)C(=O)N2` gave an MIC of over 128 mg/L (ATCC 6633).
The MIC of `CN[C@H](CC(C)C)C(=O)N[C@H]1C(=O)N[C@@H](CC(N)=O)C(=O)N[C@H]2C(=O)N[C@H]3C(=O)N[C@H](C(=O)N[C@H](C(=O)NCc4cn(CCCCC(=O)N[C@H](C(=O)N[C@@H](CCN)C(=O)N[C@H]5CCNC(=O)[C@H]([C@@H](C)O)NC(=O)[C@H](CCN)NC(=O)[C@H](CCN)NC(=O)[C@H](CC(C)C)NC(=O)[C@@H](CC(C)C)NC(=O)[C@H](CCN)NC5=O)[C@@H](C)O)nn4)c4cc(O)cc(O)c4-c4cc3ccc4O)[C@H](O)c3ccc(c(Cl)c3)Oc3cc2cc(c3O[C@@H]2O[C@H](CO)[C@@H](O)[C@H](O)[C@H]2O[C@H]2C[C@](C)(N)[C@H](O)[C@H](C)O2)Oc2ccc(cc2Cl)[C@H]1O` is reported as 0.098 µM (broth microdilution; 168, cation-adjusted Mueller-Hinton broth).
`CC(=O)N[C@@H](CC(C)C)C(=O)N[C@H]1CSSC[C@@H](C(=O)N2CCC[C@H]2C(N)=O)NC(=O)[C@H]([C@@H](C)O)NC(=O)[C@H](C(C)C)NC(=O)[C@H]([C@@H](C)O)NC(=O)CNC(=O)[C@H](CCCCN)NC(=O)[C@H](Cc2ccccc2)NC(=O)[C@H](Cc2ccc(O)cc2)NC(=O)[C@H](CCCCN)NC(=O)[C@H](CCC(=O)O)NC(=O)[C@H](Cc2ccccc2)NC(=O)[C@H](CCCNC(=N)N)NC(=O)[C@H](CCCCN)NC(=O)[C@H](CC(C)C)NC(=O)[C@H](CC(=O)O)NC(=O)[C@@H]2CCCN2C(=O)[C@H](CCCCN)NC(=O)[C@H](C(C)C)NC(=O)[C@H](CCCCN)NC(=O)[C@H](CCCCN)NC(=O)[C@H]([C@@H](C)O)NC1=O` has an MIC of 10 to 20 µM (broth dilution; CGMCC strain; 24 h).
The MIC of `CC[C@H](C)[C@H](N)C(=O)NCC(=O)N[C@@H](CC(C)C)C(=O)N[C@H](CCC(=O)O)C(=O)N[C@H](C(=O)N[C@H]1CCCCNC(=O)[C@H](CC(N)=O)NC(=O)[C@@H](CC(=O)O)NC(=O)[C@H](Cc2c[nH]cn2)NC(=O)[C@@H](Cc2ccccc2)NC(=O)[C@H]([C@@H](C)CC)NC(=O)[C@@H](CCCN)NC1=O)[C@@H](C)CC` is reported as over 64 mg/L (168; 18 h, 37 °C, 0.3 mM ZnSO4 LB).
The MIC of `CC(=O)N[C@@H](CC(C)C)C(=O)N[C@H]1CSSC[C@@H](C(=O)N2CCC[C@H]2C(N)=O)NC(=O)[C@H]([C@@H](C)O)NC(=O)[C@H](C(C)C)NC(=O)[C@H]([C@@H](C)O)NC(=O)CNC(=O)[C@H](CC(C)C)NC(=O)[C@H](Cc2ccccc2)NC(=O)[C@H](Cc2ccc(O)cc2)NC(=O)[C@H](CC(C)C)NC(=O)[C@H](CCCCN)NC(=O)[C@H](Cc2ccccc2)NC(=O)[C@H](CCCNC(=N)N)NC(=O)[C@H](CCC(N)=O)NC(=O)[C@H](CC(C)C)NC(=O)[C@H](CCCCN)NC(=O)[C@@H]2CCCN2C(=O)[C@H](CCCCN)NC(=O)[C@H](C(C)C)NC(=O)[C@H](CCCCN)NC(=O)[C@H](Cc2ccc(O)cc2)NC(=O)[C@H]([C@@H](C)O)NC1=O` is reported as under 1.25 µM (broth dilution; CGMCC strain; 24 h).
`CC(C)C[C@H](NC(=O)[C@H](CCC(=O)O)NC(=O)[C@H](C)NC(=O)[C@H](CC(C)C)NC(=O)[C@H](CCC(=O)O)NC(=O)[C@H](C)NC(=O)[C@H](CCC(N)=O)NC(=O)[C@H](CC(C)C)NC(=O)[C@H](CCC(=O)O)NC(=O)[C@H](Cc1ccc(O)cc1)NC(=O)[C@H](CC(C)C)NC(=O)[C@H](CCC(N)=O)NC(=O)[C@H](C)NC(=O)[C@H](CCC(=O)O)NC(=O)[C@H](CC(C)C)NC(=O)[C@H](CCC(N)=O)NC(=O)[C@H](C)NC(=O)[C@H](CC(C)C)NC(=O)[C@H](CCC(=O)O)NC(=O)[C@H](C)NC(=O)[C@@H](N)CCC(N)=O)C(N)=O` gave an MIC of over 250 µM (broth microdilution; ATCC 6633; 24 h).
